Assay results of several laboratories.
Lines come from different studies, so protocols differ. Values joined by “and” are separate records of one study, mostly repeats; a detail may differ.
Cell line: MRC5

c1ccc(-c2nn(-c3nc4ccccc4s3)[n+](-c3ccccc3)n2)cc1 — IC50 (cell growth or viability, resazurin; 72 h): 97 µM
COc1ccc(/N=N/C(=S)N2CCOCC2)cc1 — IC50 (cell growth or viability, resazurin; 48 h): > 50 µM
Cc1cc(C)c(N[C](NCc2cccc(N[C](Nc3c(C(C)C)cccc3C(C)C)=[Pt-]([Cl])([Cl])[C]#[N+]c3c(C(C)C)cccc3C(C)C)c2)=[Au][Cl])c(C)c1 — IC50 (cell growth or viability): > 100 µM
CN(C)C(=S)N(C)N=Cc1ccccc1SSc1ccccc1C=NN(C)C(=S)N(C)C — IC50 (cell growth or viability, MTT; 72 h): 17 µM
COc1cc(C2Oc3ccc(C=C4Oc5cc(O)ccc5C4=O)cc3OC2CO)cc(OC)c1O (stereo not drawn) — IC50 (cell growth or viability, MTT; 72 h): 63.2 µM
C[C@]12CC[C@@H]3c4ccc(O)cc4CC[C@H]3[C@@H]1CC[C@@]2(O)c1cn(CC(=O)c2ccc(Br)cc2)nn1 — IC50 (cell growth or viability, resazurin; 72 h): > 46.6 µM
C/C1=C/C[C@H]2[C@@H]3[C@@H]([C@]4(C)CO4)CC[C@@]3(C)CC[C@]2(C)C[C@H]2[C@@H](C)CC[C@@H]12 — IC50 (cell growth or viability, MTT; 72 h): 33 µM
Cc1cc(C)c(N[C](NCc2ccc(N[C](Nc3c(C(C)C)cccc3C(C)C)=[Pt-]([Cl])([Cl])[C]#[N+]c3c(C(C)C)cccc3C(C)C)cc2)=[Au][Cl])c(C)c1 — IC50 (cell growth or viability): > 100 µM
C[C@]12CC/C(=N\OCCN3CCCCC3)C=C1CCC1C2CC[C@]2(C)/C(=C/c3ccccn3)CCC12 (stereo partly drawn) — IC50 (cell growth or viability, MTT; 72 h): > 100 µM
COc1ccc(/N=N/C(=S)N2CCCCC2)cc1 — IC50 (cell growth or viability, resazurin; 48 h): > 50 µM
Cc1cc(C)c(N=[C](NCc2ccc(N)cc2)[AuH][Cl])c(C)c1 — IC50 (cell growth or viability): > 100 µM
C=C(C)[C@H]1CC[C@@]2(C)CC[C@]3(C)C[C@H]4[C@@H](C)C[C@@]5(O)OC(=O)/C(=C/C[C@H]3[C@H]12)[C@@H]45 — IC50 (cell growth or viability, MTT; 72 h): 15 µM
CC(C)c1cccc(C(C)C)c1[N+]#[C][Pt-]([Cl])([Cl])=[C](Nc1ccc(CN[C](NC(C)(C)C)=[Au][Cl])cc1)Nc1c(C(C)C)cccc1C(C)C — IC50 (cell growth or viability): > 100 µM
COC(=O)c1cnc(-c2cnccn2)cc1C(=O)OC.COC(=O)c1cnc(-c2cnccn2)cc1C(=O)OC.O=S(=O)([O-])C(F)(F)F.O=S(=O)([O-])C(F)(F)F.[Cu+2] — IC50 (cell proliferation, MTT; 48 h): 130 µM
O=C(c1ccc[nH]1)c1ccccc1O — IC50 (cell growth or viability, resazurin; 24 h): > 64 µg/mL
CC(C)c1cccc(C(C)C)c1[N+]#[C][Pt-]([Cl])([Cl])=[C](Nc1ccc(CN[C](Nc2c(C(C)C)cccc2C(C)C)=[Au][Cl])cc1)Nc1c(C(C)C)cccc1C(C)C — IC50 (cell growth or viability): > 100 µM
O=C(c1ccccc1O)c1[nH]ccc1-n1cccc1C(=O)c1ccccc1O — IC50 (cell growth or viability, resazurin; 24 h): 15 µg/mL
Oc1ccccc1-c1nn(-c2ccccn2)[n+](-c2ccccc2)n1 — IC50 (cell growth or viability, resazurin; 72 h): > 160 µM and 160 µM
CC1=CC2(C)C(=C(C)C3C4CC(C)CC(C)C4C4Oc5ccc(cc5)CC5(O)NC(=O)C(=C(O)C2C43)C5Nc2ncnc3c2ncn3C2OC(CO)C(O)C2O)C1C (stereo not drawn) — IC50 (cell growth or viability, resazurin; 72 h): 21.2 µM
CN(C)CCCO/N=C1/C=C2CCC3C(CC[C@]4(C)/C(=C/c5ccccn5)CCC34)[C@@]2(C)CC1 (stereo partly drawn) — IC50 (cell growth or viability, MTT; 72 h): > 100 µM
CC1=C(Cn2c3ccc(Br)c(=O)c-3nc3ccccc32)CCC(C)(C)C1 — IC50 (cell growth or viability, CCK-8; 72 h): 0.6 µM
c1ccc(-n2nc(-c3ccccn3)n[n+]2-c2ccccc2)cc1 — IC50 (cell growth or viability, resazurin; 72 h): > 900 µM
Cn1c2ccc(Cl)c(=O)c-2nc2ccccc21 — IC50 (cell growth or viability, CCK-8; 72 h): 4.41 µM
C[C@]12CC[C@@H]3c4ccc(O)cc4CC[C@H]3[C@@H]1CC[C@@]2(O)c1cn(CC(=O)c2cccc(F)c2)nn1 — IC50 (cell growth or viability, resazurin; 72 h): > 52.5 µM
Cc1cc(C)c([N+]#[C][Pd-]([Cl])([Cl])=[C](Nc2ccc(CN[C](Nc3c(C(C)C)cccc3C(C)C)=[Au][Cl])cc2)Nc2c(C)cc(C)cc2C)c(C)c1 — IC50 (cell growth or viability): 6 µM
CN(C)CCO/N=C1/C=C2CCC3C(CC[C@]4(C)/C(=C/c5ccccn5)CCC34)[C@@]2(C)CC1 (stereo partly drawn) — IC50 (cell growth or viability, MTT; 72 h): > 100 µM
COc1ccc(C(=O)Cn2cc([C@]3(O)CC[C@H]4[C@@H]5CCc6cc(O)ccc6[C@H]5CC[C@@]43C)nn2)cc1 — IC50 (cell growth or viability, resazurin; 72 h): > 52.5 µM
c1ccc(-c2nn(-c3ccccn3)[n+](-c3ccccc3)n2)cc1 — IC50 (cell growth or viability, resazurin; 72 h): > 160 µM and 210 µM
Cc1cc(C)c([N+]#[C][Pd-]([Cl])([Cl])=[C](Nc2cccc(CN[C](Nc3c(C(C)C)cccc3C(C)C)=[Au][Cl])c2)Nc2c(C)cc(C)cc2C)c(C)c1 — IC50 (cell growth or viability): > 100 µM
C[C@]12CC/C(=N/O)C=C1CCC1C2CC[C@]2(C)/C(=C/c3ccccn3)CCC12 (stereo partly drawn) — IC50 (cell growth or viability, MTT; 72 h): > 100 µM
C=C(C)[C@H]1CC[C@@]2(C)CC[C@]3(C)C[C@H]4[C@@H](C)CC[C@H]4/C(C)=C\C[C@H]3[C@H]12 — IC50 (cell growth or viability, MTT; 72 h): > 500 µM
Cc1cc(C)c([N+]#[C][Pt-]([Cl])([Cl])=[C](Nc2cccc(CN[C](NC(C)(C)C)=[Au][Cl])c2)Nc2c(C)cc(C)cc2C)c(C)c1 — IC50 (cell growth or viability): > 100 µM
CC1=C(Cn2c3cccc(=O)c-3nc3ccccc32)CCC(C)(C)C1 — IC50 (cell growth or viability, CCK-8; 72 h): 0.68 µM

Repeated from above:
Cc1cc(C)c(N[C](NCc2cccc(N[C](Nc3c(C(C)C)cccc3C(C)C)=[Pt-]([Cl])([Cl])[C]#[N+]c3c(C(C)C)cccc3C(C)C)c2)=[Au][Cl])c(C)c1 — IC50 (cell growth or viability): > 100 µM
CN(C)C(=S)N(C)N=Cc1ccccc1SSc1ccccc1C=NN(C)C(=S)N(C)C — IC50 (cell growth or viability, MTT; 72 h): 17 µM
COc1cc(C2Oc3ccc(C=C4Oc5cc(O)ccc5C4=O)cc3OC2CO)cc(OC)c1O (stereo not drawn) — IC50 (cell growth or viability, MTT; 72 h): 63.2 µM
C[C@]12CC[C@@H]3c4ccc(O)cc4CC[C@H]3[C@@H]1CC[C@@]2(O)c1cn(CC(=O)c2ccc(Br)cc2)nn1 — IC50 (cell growth or viability, resazurin; 72 h): > 46.6 µM
